Results pooled from the literature.
Lines come from different studies, so protocols differ. Values joined by “and” are separate records of one study, mostly repeats; a detail may differ. Numbers after ± are the reported error.
Lrrk2: Leucine-rich repeat serine/threonine-protein kinase 2 (Lrrk2, Mus musculus, UniProt Q5S006)
SHMT1: Serine hydroxymethyltransferase, cytosolic (SHMT1, Homo sapiens, UniProt P34896)
FLP: Female-specific lacrimal gland protein (FLP, Mesocricetus auratus, UniProt Q99MG7)
CYP2E1: Cytochrome P450 2E1 (CYP2E1, Homo sapiens, UniProt P05181)
Replicase polyprotein 1ab main protease: Replicase polyprotein 1ab, main protease (Feline coronavirus, UniProt Q98VG9)
sfhI: sfhI (Serratia fonticola, UniProt Q9RMI1)

O=C(O[C@@H]1Cc2c(O)cc(O)cc2O[C@@H]1c1cc(O)c(O)c(O)c1)c1cc(O)c(O)c(O)c1
Ki (SLC22A8 (Homo sapiens, UniProt Q8TCC7); transporter uptake, inhibitor): 162 µM

O=c1ccn([C@H]2C[C@H](O)[C@@H](CO)O2)c(=O)[nH]1
Ki (uracil transporter; uracil uptake, inhibitor; Trypanosoma brucei brucei, bloodstream form; 30 s, added: 0.15 µM [3H]-uracil): 1150 ± 340 µM

CCCn1c(=O)n(CCCCN2CCN(c3ccc(F)cc3)CC2)c2ccccc21
Ki (rat NMDA receptor PCP site; rat brain membranes; added: [3H]TCP): > 10 µM

Nc1ncnc2c1ncn2[C@@H]1O[C@H](COP(=O)(O)OP(=O)(O)O)[C@@H](O)[C@H]1O
Ki (Lrrk2; enzyme activity, inhibitor, TR-FRET; Ki,eb, added: PLK-peptide varied): 300 ± 100 µM

Nc1nc2c(c(=O)[nH]1)C[C@@H](CCc1ccc(C(=O)N[C@@H](CCC(=O)O)C(=O)O)cc1)CN2
Ki (SHMT1; enzyme activity, inhibitor, absorbance): 20 µM

O=c1cn[nH]c(=O)[nH]1
Ki (uracil transporter; uracil uptake, inhibitor; Trypanosoma brucei brucei, bloodstream form; 30 s, added: 0.15 µM [3H]-uracil): 663 ± 125 µM

CCCN(CCC1(O)CC(NC(=O)c2ccc(F)cc2)C1)[C@H]1CCc2nc(N)sc2C1 (stereo in doubt)
Ki (dopamine D2-like receptor, rat; radioligand binding; rat striatal membranes; high-affinity component, added: [3H]spiperone): 0.367 ± 0.027 µM

O=C(c1ccc(SCCF)cc1)C1CCN(C2Cc3ccccc3CC2O)CC1 (racemic)
Ki (Tmem97 (Rattus norvegicus, UniProt Q5U3Y7); ligand displacement, radioligand): > 1 µM

CCCCCCCCCCCO
Ki (FLP; binding, fluorescence displacement; added: 1-NPN 2 µM): 0.78 µM

Nc1ncnc2c1ncn2[C@@H]1O[C@H](COP(=O)(O)OP(=O)(O)NP(=O)(O)O)[C@@H](O)[C@H]1O
Ki (Lrrk2; enzyme activity, inhibitor): 700 µM

CCCCCCCCCCCC=O
Ki (CYP2E1; competitive inhibitor; human liver S9; 30 min, pH 7.4, added: p-nitrophenol substrate): 85 ± 8 µM

CCCN(CC[C@]1(O)C[C@@H](NC(=O)c2cccc(OC)c2)C1)[C@H]1CCc2nc(N)sc2C1 (relative stereo)
Ki (dopamine D2-like receptor, rat; radioligand binding; rat striatal membranes; high-affinity component, added: [3H]spiperone): 9.79 ± 1.5 µM

OC1CCCc2cc(OCc3ccc(Cl)cc3)ccc21 (centres unmarked)
Ki (MAOB (Homo sapiens, UniProt P27338); enzyme activity, inhibitor): 0.0065 µM

O=C(O)c1cc(=O)[nH]c(=O)[nH]1
Ki (uracil transporter; uracil uptake, inhibitor; Trypanosoma brucei brucei, bloodstream form; 30 s, added: 0.15 µM [3H]-uracil): 630 ± 48 µM

CCCN(CCC1(O)CC(NC(=O)c2ccc(OC)cc2)C1)[C@H]1CCc2nc(N)sc2C1 (stereo in doubt)
Ki (dopamine D2-like receptor, rat; radioligand binding; rat striatal membranes; high-affinity component, added: [3H]spiperone): 2.66 ± 0.461 µM

Cc1c[nH]c(=O)[nH]c1=O
Ki (uracil transporter; uracil uptake, inhibitor; Trypanosoma brucei brucei, bloodstream form; 30 s, added: 0.15 µM [3H]-uracil): > 2500 µM

COc1cc(O)c2c(=O)cc(-c3ccc(O)c(O)c3)oc2c1
Ki (Replicase polyprotein 1ab main protease; enzyme activity, inhibitor, fluorescence): 16.7 µM

O=c1c(-c2ccc(O)cc2)coc2cc(O)cc(O)c12
Ki (CNGA1 (Bos taurus, UniProt Q00194); ion current, inhibitor, inside-out patch clamp; Xenopus oocytes; fully activated channels, added: cGMP 2 mM): 72.5 µM

CC[N+](CC)(CC)CC
Ki (Sh (Drosophila melanogaster, UniProt P08510, C301S/C308S/del6-46); potassium current, blocker, voltage clamp; Xenopus oocytes; 50 mV holding potential): 33500 ± 8900 µM

CCOC(=O)[C@@]1(CS)N[C@H](C(=O)O)C(C)(C)S1
Ki (sfhI; enzyme activity, inhibitor; pH 7.5, 30 °C, added: imipenem substrate): 100 ± 10 µM

CCCCCCC=O
Ki (CYP2E1; competitive inhibitor; human liver S9; 30 min, pH 7.4, added: p-nitrophenol substrate): 32 ± 1 µM

O=C(O)c1cccc(SCc2cccc(Nc3ncc4c(-c5ccc(N6CCOCC6)cc5)[nH]nc4n3)c2)c1
Ki (Unconventional myosin-Va (Gallus gallus, UniProt Q02440); ATPase activity; two-headed construct with light chains): 5.5 ± 2.4 µM

CCCCCCCCCCCCNC(=O)[C@@H]1CCCN1C(=O)[C@@H]1CCCN1
Ki (F11 (Homo sapiens, UniProt P03951); enzyme activity, inhibitor): > 1000 µM

[Ca+2]
Ki (Cyclic nucleotide-gated channel alpha-2 (CNGA2, Bos taurus, UniProt Q03041); single-channel current, blocker, outside-out patch; wild type, -80 mV, added: cGMP 5 µM): 31 µM

O=C1C(=NNc2ccc(S(=O)(=O)O)cc2)C(c2ccc([N+](=O)[O-])cc2)=NN1c1ccccc1
Ki (UBASH3B (Homo sapiens, UniProt Q8TF42); enzyme activity, inhibitor, absorbance): 1.05 µM and 1 µM

COc1nccnc1CC(C)C
Ki (FLP; binding, fluorescence displacement; added: 1-NPN 2 µM): 1.96 µM

CCOC(=O)[C@]1(CS)N[C@H](C(=O)O)CS1
Ki (sfhI; enzyme activity, inhibitor; pH 7.5, 30 °C, added: imipenem substrate): 0.16 ± 0.03 µM

Nc1ncnc2c1ncn2[C@@H]1O[C@H](COP(=O)(O)OP(=O)(O)C(Cl)(Cl)P(=O)(O)O)[C@@H](O)[C@H]1O
Ki (Tyrosine-protein kinase JAK3, activated (JAK3, Homo sapiens, UniProt P52333); binding, LanthaScreen Eu binding): 0.073 µM

CCCN(CC[C@]1(O)C[C@@H](NS(=O)(=O)c2cccc(Cl)c2)C1)[C@H]1CCc2nc(N)sc2C1 (relative stereo)
Ki (dopamine D2-like receptor, rat; radioligand binding; rat striatal membranes; high-affinity component, added: [3H]spiperone): 0.071 ± 0.0048 µM

Nc1nc2[nH]c(CCCc3ccc(C(=O)N[C@@H](CCC(=O)O)C(=O)O)s3)cc2c(=O)[nH]1
Ki (SHMT1; enzyme activity, inhibitor, fluorescence): 112 µM

CCCN(CC[C@]1(O)C[C@H](NC(=O)c2cccc(Cl)c2)C1)[C@H]1CCc2nc(N)sc2C1 (relative stereo)
Ki (dopamine D2-like receptor, rat; radioligand binding; rat striatal membranes; high-affinity component, added: [3H]spiperone): 0.101 ± 0.012 µM

CCCCCc1cccc(O)c1C(=O)O
Ki (KAT8 (Homo sapiens, UniProt Q9H7Z6); enzyme activity, inhibitor; up to 400 µM, added: 4 µM acetyl-CoA, 60 µM histone substrate): no inhibition

CCCCCCCCCCCCO
Ki (FLP; binding, fluorescence displacement; added: 1-NPN 2 µM): 0.17 µM

O=c1ccnc[nH]1
Ki (uracil transporter; uracil uptake, inhibitor; Trypanosoma brucei brucei, bloodstream form; 30 s, added: 0.15 µM [3H]-uracil): 4410 ± 1090 µM

CCCN(CC[C@]1(O)C[C@@H](NS(=O)(=O)c2ccc(F)cc2)C1)[C@H]1CCc2nc(N)sc2C1 (relative stereo)
Ki (dopamine D2-like receptor, rat; radioligand binding; rat striatal membranes; high-affinity component, added: [3H]spiperone): 0.789 ± 0.036 µM

CC(C)=CCC/C(C)=C/CO
Ki (FLP; binding, fluorescence displacement; added: 1-NPN 2 µM): 1.1 µM

Nc1cc[nH]c(=O)n1
Ki (uracil transporter; uracil uptake, inhibitor; Trypanosoma brucei brucei, bloodstream form; 30 s, added: 0.15 µM [3H]-uracil): > 2500 µM

CCCCCCC(C)=O
Ki (FLP; binding, fluorescence displacement; added: 1-NPN 2 µM): 4 µM

1-methylquinoline
Ki (NNMT (Homo sapiens, UniProt P40261); inhibitor, fluorescence polarisation competition): > 1000 µM

CCOC(=O)C1(CCN2CCc3ccccc3C2)Cc2cc(Cl)ccc2C1=O (centres unmarked)
Ki (HTR2A (Homo sapiens, UniProt P28223); ligand displacement, radioligand): 0.038 µM

C[C@H]1O[C@@H](n2ccc(=O)[nH]c2=O)C[C@@H]1O
Ki (uracil transporter; uracil uptake, inhibitor; Trypanosoma brucei brucei, bloodstream form; 30 s, added: 0.15 µM [3H]-uracil): > 2500 µM

C=Cc1ccccc1
Ki (CYP2E1; inhibitor; 30 min, pH 7.4): 1100 µM

Cc1ccc(S(=O)(=O)N/N=C\C=C\c2ccccc2)cc1
Ki (Replicase polyprotein 1ab main protease; enzyme activity, inhibitor, fluorescence): 48.8 µM

Oc1cccc2c1CC[C@H]1[C@H]2CCCN1CCN1CCN(c2ccccc2)CC1 (racemic)
Ki (Drd2 (Rattus norvegicus, UniProt P61169); ligand displacement, radioligand; cell membranes): 0.0491 µM and 0.049 µM

OC[C@@H]1[C@@H](O)[C@H](O)[C@@H](O)[C@@H]2O[C@H]12
Ki (GBA1 (Homo sapiens, UniProt P04062, R534H); enzyme activity, irreversible inhibitor; pH 5.2, 37 °C, added: 2,4-DNP-β-Glc): 9.2 µM and 9 µM

CCCN(CCC1(O)CC(NC(=O)c2ccccc2F)C1)[C@H]1CCc2nc(N)sc2C1 (stereo in doubt)
Ki (dopamine D2-like receptor, rat; radioligand binding; rat striatal membranes; high-affinity component, added: [3H]spiperone): 17 ± 4.09 µM

OB(O)c1ccc(/N=N/c2ccccc2)cc1
Ki (Calcium release-activated calcium channel protein 1, with STIM1 (ORAI1, Homo sapiens, UniProt Q96D31); CRAC current, inhibitor, whole-cell patch clamp; HEK293 expressing STIM1 and ORAI1): 131 ± 24 µM

Repeated from above:
Nc1nc2[nH]c(CCCc3ccc(C(=O)N[C@@H](CCC(=O)O)C(=O)O)s3)cc2c(=O)[nH]1
Ki (SHMT1; enzyme activity, inhibitor, fluorescence): 112 µM

O=c1ccnc[nH]1
Ki (uracil transporter; uracil uptake, inhibitor; Trypanosoma brucei brucei, bloodstream form; 30 s, added: 0.15 µM [3H]-uracil): 4410 ± 1090 µM

C=Cc1ccccc1
Ki (CYP2E1; inhibitor; 30 min, pH 7.4): 1100 µM

CCCN(CC[C@]1(O)C[C@@H](NS(=O)(=O)c2cccc(Cl)c2)C1)[C@H]1CCc2nc(N)sc2C1 (relative stereo)
Ki (dopamine D2-like receptor, rat; radioligand binding; rat striatal membranes; high-affinity component, added: [3H]spiperone): 0.071 ± 0.0048 µM

COc1cc(O)c2c(=O)cc(-c3ccc(O)c(O)c3)oc2c1
Ki (Replicase polyprotein 1ab main protease; enzyme activity, inhibitor, fluorescence): 16.7 µM

CCCN(CCC1(O)CC(NC(=O)c2ccc(F)cc2)C1)[C@H]1CCc2nc(N)sc2C1 (stereo in doubt)
Ki (dopamine D2-like receptor, rat; radioligand binding; rat striatal membranes; high-affinity component, added: [3H]spiperone): 0.367 ± 0.027 µM
